Published values gathered from unrelated publications.
Numbered parts are unrelated; each lists some results of a single study. Substitutions count along the parent as printed.

Sample 1 — target: CCNE1, cyclin fold, Cln2 fusion (human); method: yeast growth competition, sequencing; matrix: yeast; notes: strong parent motif; relative to: not given; reading: higher = stronger binding; measurement: normalised enrichment score
Parent: PKN2 docking peptide (human); VSAVRKLDFSDTM
Variant = VSCVRKLDFSDTM [A3C]; value = 5.21
Variant = VSAVRELDFSDTM [K6E]; value = 2.39
Variant = VSAVRKLDFSRTM [D11R]; value = 4.13
Variant = VSAVCKLDFSDTM [R5C]; value = 1.47
Variant = VSAVTKLDFSDTM [R5T]; value = 0.328
Variant = VSAVRTLDFSDTM [K6T]; value = 3.82
Variant = VSAVRKLDFSDLM [T12L]; value = 5.88
Variant = VSAVEKLDFSDTM [R5E]; value = 0.229

Sample 2 — method: protein binding microarray; molecule type: double-stranded DNA, one strand shown; matrix: in vitro; tested at: not given; relative to: not given; reading: higher = stronger binding; measurement: E-score
Target: Histone acetyltransferase KAT6A, winged helix 2, GST fusion (KAT6A, Homo sapiens, UniProt Q92794, residues 85-181)
Notes: 8-mer, flanks averaged, mean of 2 arrays, mostly near background
Target sequence (chain): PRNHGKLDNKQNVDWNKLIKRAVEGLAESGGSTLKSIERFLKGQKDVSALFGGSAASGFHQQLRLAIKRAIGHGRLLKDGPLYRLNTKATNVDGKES
Oligonucleotide = CAGACTAG; value = -0.0929
Oligonucleotide = AAACATCT; value = -0.129
Oligonucleotide = GCAGCTCC; value = 0.0348
Oligonucleotide = CCGTCGCA; value = 0.155
Oligonucleotide = ATTAACCA; value = -0.14
Oligonucleotide = AAGGTCAG; value = 0.106

Sample 3 — method: RNA Bind-n-Seq; molecule type: RNA; matrix: in vitro; tested at: not given; relative to: input RNA pool; reading: higher = stronger binding; measurement: bound/input enrichment
Target: RING finger protein unkempt homolog, zinc fingers 1-6, GST-SBP tag (UNK, Homo sapiens, UniProt Q9C0B0, residues 30-357)
Notes: RNA with constant flanks, human and mouse sites, ends assumed
All sequences stand within: GGGAGUUCUACAGUCCGACGAUC … CAACAGAGGAUUGAGCAUCA
Residues (chain): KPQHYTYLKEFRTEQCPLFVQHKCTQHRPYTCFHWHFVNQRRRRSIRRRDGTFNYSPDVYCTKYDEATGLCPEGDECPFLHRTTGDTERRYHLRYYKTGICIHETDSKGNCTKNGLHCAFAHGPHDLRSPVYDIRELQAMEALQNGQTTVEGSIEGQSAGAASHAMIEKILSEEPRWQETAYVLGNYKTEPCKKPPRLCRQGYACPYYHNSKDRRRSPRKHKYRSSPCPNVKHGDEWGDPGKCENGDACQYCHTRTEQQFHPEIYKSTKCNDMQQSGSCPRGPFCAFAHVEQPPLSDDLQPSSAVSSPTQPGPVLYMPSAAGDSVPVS
Oligonucleotide = UCUUAAGUAGCCUUAAACAGAACAGCGAAAAUUUAAAAUUGACAAAAUAUUUUUAAGACUUCAAAAUAGUAAAUAAUUUUUAACUAUUAUAAUUGGCCUCAAACUAACAAAUUUAAAUCU; value = 16.8 ratio
Oligonucleotide = UAUGGAAGAAAAGCUACUUGGAUAGGUGCAAGUGGGGACCAAACUUUUUUACGAAUUGAUGAAGCACUUAUUAAUUCUCAUGUACUUGCUACAUCAGAAAUUUUUGCCAGUAAACACAUA; value = 0.274 ratio
Oligonucleotide = AGCCGCUGCACCUCGAAAUGUGUGUUUUUUAGCCAGCUCCUUGCUGUACUGAUUCAGAUGCAGCUAAGGUUUCUGACCAUGGAACAAGGGCUGAUGAAGUUGGACCUGAGGCCUAGAGCC; value = 0.0944 ratio
Oligonucleotide = GAAACCACUUAUCCAAAUACUUACAUUUUUGACUUGUUUGGAGGUGUUGAUCUUCUUGUAGAAAUUCUUAUGAGGCCUACGAUCUCUAUCCGGGGACAGAAACUGAAAAUAAGUGAUGAA; value = 0.275 ratio
Oligonucleotide = UCCUUCCCACAUCACAGGGCUACCUUGAGACUCUCCGAGAAGUUUAUCCUUCUCCUCAUCCUUAGUGCCUUCAUCACCCUGUGUUUUGGGGCAUUCUUCUUCCUUCCAGACUCUUCAAAA; value = 0.407 ratio
Oligonucleotide = UGUAUGCUUUUCCUUGUGUAAAAUCAUUGUUCUUUUUGACAAGUGGUUUGUUUCAUUUAUUAUAGCUUUGAAAUAAAAAAUCGUGAGGGAAAAAAAAUCCAAUGAUUGUACUGUGGUUAG; value = 0.382 ratio
Oligonucleotide = GAAUUGCCAGAGAGGGCAACAAAUCCAUUUGUAAAUAGAGAGUCAGCAGAGUUUUCAGUAUUAGAAUACUCAGAAAUGGGAUCAUCUUUCAAUGGCUCCCCAAAAGGAGAGUCAGCCAUG; value = 0.33 ratio
Oligonucleotide = CAGAAGUGGAUUGAGCAAGUAACUGGCAGAAGUUUUGGUGAUAAAGAUUUUCGGACAGGUUUAGAAAAUGGAAUCCUCCUCUGCGAGUUGCUGAAUGCUAUAAAGCCAGGACUUGUUAAA; value = 0.737 ratio

Other studies, line by line
Substance = PhoQ, residues 284 288 289 292 302 303 NLCILV; target = PhoP, residues 12 14 15 18 19 NHFIF (Escherichia coli, UniProt P23836); assay = Sort-seq, item: YFP reporter; system = E. coli; conditions = PhoQ-PhoP variant library, together with: 10 µM Mg2+; how to read = relative to: high Mg2+ state, higher = stronger signaling; measurement = fold induction; value = 4.17

A few entries again (sample 2):
Oligonucleotide = AAGGTCAG; value = 0.106
Oligonucleotide = ATTAACCA; value = -0.14
